{"data": "Published values from different studies", "note": "Compare with care: the assays were run in different laboratories. ± marks the error that the study gave."}
{"SMILES": "CN1CCCNC(=O)c2cccc(c2)C(=O)NCCCN(C)CCCNc2cccc3c2C(=O)c2cccc(c2C3=O)NCCC1", "tested on": "SAS", "assay": "RNA-Seq, measured: TTC14 mRNA", "setting": "1 µM, 6 h", "scale": "baseline: untreated cells", "measurement": "log2 fold change", "value": -1.94}
{"SMILES": "COc1cc(O)ccc1CCC(c1ccc(O)cc1)c1cc2c(c(C)c1O)OC(c1ccc(O)cc1)CC2 (mixture of isomers)", "test system": "human blood", "setting": "10 µM, with: A23187", "measurement": "EPA level", "value": "74600 ± 16300 pg/mL"}
{"SMILES": "CNS(=O)(=O)Nc1nccc(Cc2c(C)c3ccc(Oc4ncccc4F)cc3oc2=O)c1F", "tested on": "769-P", "assay": "cell viability", "setting": "7 days", "measurement": "IC50", "value": "> 1000 nM"}
{"SMILES": "C=CC(=O)Nc1cccc(Cn2ncc3cnc(Nc4cnn(CCOC)c4)nc32)c1", "tested on": "CLK2 human", "assay": "binding, KINOMEscan", "setting": "100 nM", "scale": "lower = stronger binding", "measurement": "percent of control", "value": "32%"}
{"SMILES": "C[n+]1ccc(/C=N/NC(=O)C(=O)N/N=C/c2cc[n+](C)c3ccccc23)c2ccccc21", "tested on": "myc22 MYC G4-DNA parallel", "assay": "FRET melting", "setting": "1 µM, K1 buffer, DNA 0.2 µM", "measurement": "ΔTm", "value": "3.7 ± 0.5 °C"}
{"SMILES": "Nc1ncc(-c2cc(-c3cnn(CC(F)(F)F)c3)ncc2F)nc1C(=O)NC1CNCC(F)C1 (stereo not shown)", "tested on": "TLK2", "assay": "KINOMEscan", "setting": "1 µM", "scale": "baseline: DMSO control", "measurement": "remaining binding", "value": "78%"}
{"SMILES": "O=C(N/N=C/c1ccc(C[n+]2ccccc2)cc1)c1cc(C(=O)N/N=C/c2ccc(C[n+]3ccccc3)cc2)ncn1", "tested on": "myc22 MYC G4-DNA parallel", "assay": "FRET melting", "setting": "1 µM, K1 buffer, DNA 0.2 µM", "measurement": "ΔTm", "value": "2.3 ± 2.2 °C"}
{"SMILES": "CCN(CC)CC(=O)Nc1cccc(-n2cc(-c3ccc4ccc(-c5cn(-c6cccc(NC(=O)CN(CC)CC)c6)nn5)cc4c3)nn2)c1", "tested on": "RCC4", "assay": "PCR array, measured: LEP", "setting": "5 x IC50, 4 h, normoxia", "scale": "baseline: untreated", "measurement": "fold regulation", "value": -1.27}
{"SMILES": "Cc1ncsc1-c1ccc(C(C)NC(=O)C2CC(O)CN2C(=O)C(NC(=O)CCCCCCCCCCN2CCCC(Nc3ncc(Cl)c(Nc4ccccc4S(=O)(=O)C(C)C)n3)C2)C(C)(C)C)cc1 (stereo not shown)", "tested on": "22Rv1", "assay": "RNA-seq, measured: ZNF181 mRNA", "setting": "concentration not given", "scale": "baseline: DMSO", "measurement": "log2 fold change", "value": -1.12}
{"SMILES": "CC[n+]1cccc2cc(/C=N/NC(=O)c3cccc(C(=O)N/N=C/c4ccc5c(ccc[n+]5CC)c4)c3)ccc21", "tested on": "myc22 MYC G4-DNA parallel", "assay": "FRET melting", "setting": "1 µM, K1 buffer, DNA 0.2 µM", "measurement": "ΔTm", "value": "6.4 ± 0.3 °C"}
{"SMILES": "C=CC(=O)N1[C@H](c2ccc3c(c2)OCO3)c2[nH]c3ccccc3c2C[C@@H]1C(=O)N1CCN(C)CC1", "tested on": "human cyclin E1 N112C-3xFLAG:CDK2", "assay": "co-IP with TMT proteomics, measured: BCLAF1", "setting": "concentration not given, Q9NYF8", "scale": "baseline: wild type DMSO", "measurement": "relative co-enrichment", "value": "106%"}
{"SMILES": "O=C(N/N=C/c1ccc2c(ccc[n+]2Cc2ccccc2)c1)c1cc(C(=O)N/N=C/c2ccc3c(ccc[n+]3Cc3ccccc3)c2)ncn1", "tested on": "myc22 MYC G4-DNA parallel", "assay": "FRET melting", "setting": "1 µM, K1 buffer, DNA 0.2 µM, with: ds26 10 µM", "measurement": "ΔTm", "value": "7.6 ± 0.2 °C"}
{"SMILES": "COC1CN([C@H]2CC[C@H]([C@@]3(C)Oc4c(Cl)cc(C(=O)NCc5c(SC)cc(C)[nH]c5=O)c(C)c4O3)CC2)C1", "assay": "RNA-seq, measured: SORCS2 mouse homolog", "test system": "mouse, HT-1376 xenograft, whole blood", "setting": "dose not given", "scale": "baseline: vehicle", "measurement": "log2 fold change", "value": 0.342}
{"note": "Excerpt of the above:"}
{"SMILES": "C[n+]1ccc(/C=N/NC(=O)C(=O)N/N=C/c2cc[n+](C)c3ccccc23)c2ccccc21", "tested on": "myc22 MYC G4-DNA parallel", "assay": "FRET melting", "setting": "1 µM, K1 buffer, DNA 0.2 µM", "measurement": "ΔTm", "value": "3.7 ± 0.5 °C"}
{"SMILES": "Nc1ncc(-c2cc(-c3cnn(CC(F)(F)F)c3)ncc2F)nc1C(=O)NC1CNCC(F)C1 (stereo not shown)", "tested on": "TLK2", "assay": "KINOMEscan", "setting": "1 µM", "scale": "baseline: DMSO control", "measurement": "remaining binding", "value": "78%"}
